{"data": "Results of several laboratories", "note": "A part holds a random share of what one study measured.", "sequence of UniProt Q86UE8 (whole entry, looked up)": "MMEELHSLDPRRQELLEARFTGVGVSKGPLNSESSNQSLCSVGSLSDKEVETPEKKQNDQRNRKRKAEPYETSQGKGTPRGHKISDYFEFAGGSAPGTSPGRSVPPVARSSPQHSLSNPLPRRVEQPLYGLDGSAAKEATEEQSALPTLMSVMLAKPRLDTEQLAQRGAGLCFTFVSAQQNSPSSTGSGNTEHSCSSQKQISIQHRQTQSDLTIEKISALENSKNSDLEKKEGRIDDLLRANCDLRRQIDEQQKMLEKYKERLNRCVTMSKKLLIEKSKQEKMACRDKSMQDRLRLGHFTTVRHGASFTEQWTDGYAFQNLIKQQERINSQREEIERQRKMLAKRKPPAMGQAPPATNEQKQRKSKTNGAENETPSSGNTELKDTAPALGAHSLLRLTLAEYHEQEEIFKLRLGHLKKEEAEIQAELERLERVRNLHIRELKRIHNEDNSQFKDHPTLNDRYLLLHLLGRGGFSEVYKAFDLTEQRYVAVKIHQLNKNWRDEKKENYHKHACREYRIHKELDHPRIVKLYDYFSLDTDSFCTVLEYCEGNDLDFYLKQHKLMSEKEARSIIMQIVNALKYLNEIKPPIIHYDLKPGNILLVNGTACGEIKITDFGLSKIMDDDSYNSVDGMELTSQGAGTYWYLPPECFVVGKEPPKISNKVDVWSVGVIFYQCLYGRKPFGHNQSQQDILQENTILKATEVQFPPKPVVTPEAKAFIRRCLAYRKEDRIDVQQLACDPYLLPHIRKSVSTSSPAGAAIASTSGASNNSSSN", "sequence of UniProt P00519 (whole entry, unmodified, looked up)": "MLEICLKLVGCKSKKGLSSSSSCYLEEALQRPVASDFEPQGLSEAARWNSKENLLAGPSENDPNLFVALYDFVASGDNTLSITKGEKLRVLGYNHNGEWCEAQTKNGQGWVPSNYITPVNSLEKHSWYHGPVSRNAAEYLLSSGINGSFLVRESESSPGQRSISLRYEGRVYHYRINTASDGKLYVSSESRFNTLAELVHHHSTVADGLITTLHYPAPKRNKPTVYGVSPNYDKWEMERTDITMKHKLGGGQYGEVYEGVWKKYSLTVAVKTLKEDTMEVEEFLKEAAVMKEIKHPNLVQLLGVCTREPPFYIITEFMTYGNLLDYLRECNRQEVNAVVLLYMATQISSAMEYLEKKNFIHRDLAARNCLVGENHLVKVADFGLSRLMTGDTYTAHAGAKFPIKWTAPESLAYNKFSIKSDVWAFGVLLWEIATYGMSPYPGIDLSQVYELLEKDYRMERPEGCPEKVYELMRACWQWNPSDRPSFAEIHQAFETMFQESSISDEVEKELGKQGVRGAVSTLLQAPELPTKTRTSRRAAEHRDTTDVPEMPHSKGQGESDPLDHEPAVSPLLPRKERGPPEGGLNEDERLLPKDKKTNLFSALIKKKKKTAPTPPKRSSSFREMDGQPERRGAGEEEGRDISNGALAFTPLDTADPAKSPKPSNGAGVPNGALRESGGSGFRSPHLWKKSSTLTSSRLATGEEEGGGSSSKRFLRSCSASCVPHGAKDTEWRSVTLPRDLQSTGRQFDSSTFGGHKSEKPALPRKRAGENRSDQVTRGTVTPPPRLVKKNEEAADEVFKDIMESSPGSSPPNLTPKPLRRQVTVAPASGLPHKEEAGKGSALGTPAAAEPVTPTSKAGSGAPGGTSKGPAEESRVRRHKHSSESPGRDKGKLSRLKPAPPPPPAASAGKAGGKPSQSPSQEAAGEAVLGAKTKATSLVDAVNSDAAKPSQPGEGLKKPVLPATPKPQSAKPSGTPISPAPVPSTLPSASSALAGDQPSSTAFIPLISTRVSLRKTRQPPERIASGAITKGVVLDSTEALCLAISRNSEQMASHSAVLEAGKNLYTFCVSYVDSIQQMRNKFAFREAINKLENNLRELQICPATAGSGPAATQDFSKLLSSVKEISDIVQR", "sequence of UniProt Q8IVW4 (whole entry, looked up)": "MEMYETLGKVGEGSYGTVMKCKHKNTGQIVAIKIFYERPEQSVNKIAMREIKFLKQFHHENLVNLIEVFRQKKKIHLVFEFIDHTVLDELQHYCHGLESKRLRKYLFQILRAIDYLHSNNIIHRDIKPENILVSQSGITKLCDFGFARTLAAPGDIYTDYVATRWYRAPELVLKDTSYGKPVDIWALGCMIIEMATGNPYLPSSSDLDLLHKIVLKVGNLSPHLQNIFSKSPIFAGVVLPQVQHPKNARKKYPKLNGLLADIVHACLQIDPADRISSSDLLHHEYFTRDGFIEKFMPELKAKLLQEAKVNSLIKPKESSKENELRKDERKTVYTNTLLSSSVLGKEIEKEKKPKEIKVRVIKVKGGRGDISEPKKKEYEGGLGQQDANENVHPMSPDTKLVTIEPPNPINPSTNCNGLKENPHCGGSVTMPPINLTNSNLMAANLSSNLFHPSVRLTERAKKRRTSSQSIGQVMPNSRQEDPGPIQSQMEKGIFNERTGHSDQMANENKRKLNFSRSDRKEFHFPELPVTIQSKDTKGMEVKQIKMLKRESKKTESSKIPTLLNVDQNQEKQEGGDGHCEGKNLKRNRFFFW", "sequence of UniProt Q8IWQ3 (whole entry, looked up)": "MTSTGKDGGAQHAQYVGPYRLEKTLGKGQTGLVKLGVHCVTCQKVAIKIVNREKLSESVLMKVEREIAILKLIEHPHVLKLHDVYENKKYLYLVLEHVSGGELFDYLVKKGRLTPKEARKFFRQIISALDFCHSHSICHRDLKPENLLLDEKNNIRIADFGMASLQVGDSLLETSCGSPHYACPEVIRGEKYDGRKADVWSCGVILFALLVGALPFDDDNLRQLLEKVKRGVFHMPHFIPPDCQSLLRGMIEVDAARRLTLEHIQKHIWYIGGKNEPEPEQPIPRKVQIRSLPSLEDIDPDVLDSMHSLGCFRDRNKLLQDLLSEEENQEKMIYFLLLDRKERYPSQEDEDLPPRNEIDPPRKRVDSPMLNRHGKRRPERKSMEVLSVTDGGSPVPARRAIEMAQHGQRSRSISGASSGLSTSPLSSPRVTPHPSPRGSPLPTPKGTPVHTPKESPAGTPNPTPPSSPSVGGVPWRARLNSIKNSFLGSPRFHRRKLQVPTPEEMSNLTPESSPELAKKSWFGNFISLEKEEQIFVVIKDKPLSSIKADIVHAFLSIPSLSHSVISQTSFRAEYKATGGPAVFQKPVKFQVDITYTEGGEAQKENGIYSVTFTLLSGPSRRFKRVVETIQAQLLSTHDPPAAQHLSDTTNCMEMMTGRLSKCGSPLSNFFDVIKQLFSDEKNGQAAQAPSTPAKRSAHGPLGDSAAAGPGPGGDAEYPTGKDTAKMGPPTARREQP", "sequence of UniProt P42336 (whole entry, unmodified, looked up)": "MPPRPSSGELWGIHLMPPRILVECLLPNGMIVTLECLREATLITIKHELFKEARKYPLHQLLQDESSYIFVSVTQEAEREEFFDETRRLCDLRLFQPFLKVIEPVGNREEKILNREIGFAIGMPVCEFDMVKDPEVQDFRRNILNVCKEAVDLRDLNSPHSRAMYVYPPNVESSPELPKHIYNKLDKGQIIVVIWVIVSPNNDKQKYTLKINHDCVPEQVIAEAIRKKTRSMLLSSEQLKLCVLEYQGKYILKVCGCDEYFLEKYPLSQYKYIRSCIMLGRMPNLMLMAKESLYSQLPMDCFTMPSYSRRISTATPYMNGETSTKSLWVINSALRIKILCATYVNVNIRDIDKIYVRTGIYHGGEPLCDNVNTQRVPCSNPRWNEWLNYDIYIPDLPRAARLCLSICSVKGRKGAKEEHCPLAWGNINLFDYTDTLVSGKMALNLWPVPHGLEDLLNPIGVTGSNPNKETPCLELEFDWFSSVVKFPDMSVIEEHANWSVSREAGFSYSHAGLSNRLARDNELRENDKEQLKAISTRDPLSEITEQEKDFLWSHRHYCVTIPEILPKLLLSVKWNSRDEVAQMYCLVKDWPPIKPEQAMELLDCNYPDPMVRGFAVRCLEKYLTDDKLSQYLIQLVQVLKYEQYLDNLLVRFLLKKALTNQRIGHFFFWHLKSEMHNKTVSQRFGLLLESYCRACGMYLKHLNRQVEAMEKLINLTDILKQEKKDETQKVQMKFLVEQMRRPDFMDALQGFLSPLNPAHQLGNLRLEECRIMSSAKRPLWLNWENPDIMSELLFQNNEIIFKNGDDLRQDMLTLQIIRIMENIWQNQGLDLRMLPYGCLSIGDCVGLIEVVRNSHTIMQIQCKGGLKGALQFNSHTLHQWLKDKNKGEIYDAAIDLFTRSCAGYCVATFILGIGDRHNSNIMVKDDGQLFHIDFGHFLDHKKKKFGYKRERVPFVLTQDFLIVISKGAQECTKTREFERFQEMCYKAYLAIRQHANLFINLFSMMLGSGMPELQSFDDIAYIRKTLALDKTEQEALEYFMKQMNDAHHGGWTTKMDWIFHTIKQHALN"}
{"data": "Set 1", "target": "Myosin light chain kinase 2, skeletal/cardiac muscle (MYLK2, Homo sapiens, UniProt Q9H1R3)", "observed": "enzyme activity", "mode": "inhibitor", "tested at": "0.5 µM", "baseline": "control", "sequence of UniProt Q9H1R3 (whole entry, looked up)": "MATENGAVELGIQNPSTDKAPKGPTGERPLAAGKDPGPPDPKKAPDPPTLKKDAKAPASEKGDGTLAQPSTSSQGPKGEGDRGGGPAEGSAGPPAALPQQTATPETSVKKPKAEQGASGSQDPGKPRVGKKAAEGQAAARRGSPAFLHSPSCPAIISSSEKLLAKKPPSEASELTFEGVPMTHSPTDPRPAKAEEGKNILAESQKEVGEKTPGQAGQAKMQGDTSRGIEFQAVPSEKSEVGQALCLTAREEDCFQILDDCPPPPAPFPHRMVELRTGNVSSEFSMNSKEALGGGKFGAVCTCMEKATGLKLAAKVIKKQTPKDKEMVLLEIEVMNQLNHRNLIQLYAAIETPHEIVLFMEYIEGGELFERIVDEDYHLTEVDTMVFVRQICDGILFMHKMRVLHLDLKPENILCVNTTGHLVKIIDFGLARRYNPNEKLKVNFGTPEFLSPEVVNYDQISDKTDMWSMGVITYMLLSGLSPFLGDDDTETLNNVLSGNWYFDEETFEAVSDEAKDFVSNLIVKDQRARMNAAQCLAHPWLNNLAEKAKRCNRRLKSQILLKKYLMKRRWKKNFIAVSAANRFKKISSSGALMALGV"}
{"Structure (SMILES)": "N#CC(=C(N)Sc1ccc(N)cc1)c1ccccc1C(F)(F)F", "remaining activity": "100%"}
{"Structure (SMILES)": "O=C1NC(=O)C(c2c[nH]c3ccccc23)=C1c1c[nH]c2ccccc12", "remaining activity": "91.9%"}
{"Structure (SMILES)": "CCc1[nH]c(-c2ccc(OC)cc2)nc1-c1ccncc1", "remaining activity": "101%"}
{"Structure (SMILES)": "COc1cc(Nc2c(C#N)cnc3cc(OCCCN4CCN(C)CC4)c(OC)cc23)c(Cl)cc1Cl", "remaining activity": "32.1%"}
{"Structure (SMILES)": "O=S(=O)(NCCNC/C=C/c1ccc(Br)cc1)c1cccc2cnccc12", "remaining activity": "96.5%"}
{"Structure (SMILES)": "Oc1ccc(Nc2nc(-c3ccc(Cl)cc3)cs2)cc1", "remaining activity": "97.1%"}
{"Structure (SMILES)": "Nc1ncnc2c1cnn2-c1ccccc1", "remaining activity": "99.9%"}
{"Structure (SMILES)": "COc1ccc(S(=O)(=O)N(CCO)c2ccccc2CN(C)CC=Cc2ccc(Cl)cc2)cc1", "remaining activity": "97.8%"}
{"Structure (SMILES)": "NC(=O)c1ccc(N(C(N)=O)c2c(F)cccc2F)nc1-c1ccc(F)cc1F", "remaining activity": "101%"}
{"Structure (SMILES)": "CSc1nc(-c2ccnc(N[C@@H](C)c3ccccc3)c2)c(-c2ccc(F)cc2)[nH]1 (racemic)", "remaining activity": "102%"}
{"Structure (SMILES)": "CC[n+]1c(/C=C/N(C)c2ccccc2)n(-c2ccccc2)c2ccc(-c3nc4ccccc4s3)cc21", "remaining activity": "95.8%"}
{"Structure (SMILES)": "CC(C)(C)n1nc(Cc2cccc3ccccc23)c2c(N)ncnc21", "remaining activity": "96%"}
{"Structure (SMILES)": "Cc1ccc(NC2=CC(=O)c3sc(C)nc3C2=O)cc1", "remaining activity": "92.8%"}
{"Structure (SMILES)": "Nc1nc(Nc2ccc(S(N)(=O)=O)cc2)nn1C(=O)c1c(F)cccc1F", "remaining activity": "96.1%"}
{"Structure (SMILES)": "Cc1cncc2cccc(S(=O)(=O)N3CCCN(C(=O)CN)C[C@@H]3C)c12", "remaining activity": "101%"}
{"Structure (SMILES)": "CC(=O)c1ccc(N2CCOCC2)cc1O", "remaining activity": "98.6%"}
{"Structure (SMILES)": "Nc1nccc(-c2c(-c3ccc(F)cc3)ncn2C2CCNCC2)n1", "remaining activity": "103%"}
{"Structure (SMILES)": "Fc1ccc(-c2nc3n(c2-c2ccncc2)CCS3)cc1", "remaining activity": "101%"}
{"Structure (SMILES)": "CC#CC(=O)Nc1cc2c(Nc3ccc(F)c(Cl)c3)ncnc2cn1", "remaining activity": "99.9%"}
{"Structure (SMILES)": "O=C1Cc2c([nH]c3ccc([N+](=O)[O-])cc23)-c2ccccc2N1", "remaining activity": "94.8%"}
{"Structure (SMILES)": "CCCC(=O)Oc1ccc2[nH]c(C(=O)c3cc4ccccc4[nH]3)cc2c1", "remaining activity": "98.2%"}
{"Structure (SMILES)": "Cc1cc(Nc2nc(-c3ccccc3)nc3ccccc23)n[nH]1", "remaining activity": "62.8%"}
{"data": "Set 2", "host": "mouse", "medium": "microsomes or S9", "tested at": "2 µM", "time": "0.5 h"}
{"SMILES": "CC(C)(C)n1cc(/C=C/c2ncc(Br)s2)nn1", "remaining compound [%]": 94.9}
{"SMILES": "Cn1cncc1-c1cccc(-c2cn3cccc(C#N)c3n2)c1", "remaining compound [%]": 46.6}
{"SMILES": "COc1nc2cc(C)ccc2cc1CN(C)C1(C)CCS(=O)(=O)C1 (stereo not drawn)", "remaining compound [%]": 8.07}
{"SMILES": "Cc1ccc2ncc(-c3ccc(CN(C)C)cn3)cc2c1", "remaining compound [%]": 8.79}
{"SMILES": "Cn1nnc(-c2ccc(OCC(=O)Nc3ccc4[nH]ccc4c3)cc2)n1", "remaining compound [%]": 72.4}
{"SMILES": "CN(C)C(CN1C(O)=c2ccccc2=NC12C(=O)Nc1ccccc12)c1ccccc1 (stereo not drawn)", "remaining compound [%]": 5.05}
{"SMILES": "COc1ccc(-c2nnc3c4ccccc4c(Cl)nn23)cc1", "remaining compound [%]": 19.8}
{"SMILES": "CCCc1nc(C(=O)N2C[C@@H](CN3C[C@@H](C)O[C@@H](C)C3)[C@@H](CO)C2)cs1", "remaining compound [%]": 43.1}
{"SMILES": "Cc1cc2nnc(SC3CC(C)OC3=O)n2c(C)n1 (stereo not drawn)", "remaining compound [%]": 30}
{"SMILES": "COc1ccccc1-n1nc2c(C)nnc(C)c2c1C", "remaining compound [%]": 81}
{"SMILES": "CC1(C)CC(=O)C2=C(C1)c1c(ccc3ccccc13)NC2c1cccnc1 (stereo not drawn)", "remaining compound [%]": 17.9}
{"SMILES": "COc1nc(OC)c2nno/c(=N\\Cc3ccc(F)cc3)c2n1", "remaining compound [%]": 0.788}
{"SMILES": "Nc1cc(C(=O)OCCC2CCOC2=O)cnc1Cl (stereo not drawn)", "remaining compound [%]": 0.0277}
{"SMILES": "O=C(O)C[C@@H](Cc1cc(F)c(F)cc1F)NC(=O)Nc1ccc(I)cc1", "remaining compound [%]": 59.8}
{"SMILES": "Cc1ncn(-c2cc(NCCNC(=O)C(C)(C)C)ncn2)c1C", "remaining compound [%]": 60.4}
{"SMILES": "CN1C(=O)c2ccccc2C(C(=O)Nc2nc3ccccc3[nH]2)C1c1ccccc1 (stereo not drawn)", "remaining compound [%]": 24}
{"SMILES": "CCC(C)(CNC(=O)c1sc(-c2c(C)noc2C)nc1C)OC (stereo not drawn)", "remaining compound [%]": 41.7}
{"SMILES": "CC1(C)CC(O)CC(C)(C)N1CC(O)COc1cccc2ccccc12 (stereo not drawn)", "remaining compound [%]": 0}
{"SMILES": "CCOc1cc(=O)n2c(c1C(=O)NC1CCN(Cc3ccccc3)CC1)CCCCC2", "remaining compound [%]": 49.2}
{"SMILES": "Cc1cc(C#N)cc(C(=O)c2c(C(C)C)c(=O)[nH]c(=O)n2Cc2cc(F)nc(OCCOCc3ccccc3)c2)c1", "remaining compound [%]": 1.25}
{"SMILES": "CCc1nnc(NCCc2cncn2C)c(C#N)c1CC", "remaining compound [%]": 73.8}
{"SMILES": "COCc1nc2cc(-c3ccccc3CO)ccc2o1", "remaining compound [%]": 0.565}
{"SMILES": "COC(=O)c1c(C(=O)OC)c(-c2ccc(N)cc2)n2c1CCC2", "remaining compound [%]": 11.4}
{"SMILES": "OC1(Cc2cccc(Br)c2)CCNCC1", "remaining compound [%]": 76.7}
{"SMILES": "CN(C)c1ccc2c(c1)C(c1ccccc1)CC2=O (stereo not drawn)", "remaining compound [%]": 1.46}
{"data": "Set 3", "medium": "hydrocarbon/water", "pH": "7.4"}
{"SMILES": "CC(C)C[C@@H]1NC(=O)CN(CCCOC(C)C)C(=O)[C@H](C)NC(=O)[C@H](CC(C)C)N(C)C(=O)[C@H]2CCCN2C(=O)[C@H](C)NC(=O)CN(CC2CCOCC2)C(=O)[C@H](C)NC(=O)[C@H](CC(C)C)N(C)C(=O)[C@H]2CCCN2C1=O", "logD": -0.151}
{"SMILES": "CCC[C@@H]1NC(=O)CN(CC)C(=O)[C@H](CC(C)C)NC(=O)Cn2cc(nn2)CN(C)C(=O)[C@H](CC(C)C)NC(=O)[C@H](C)N(C)C(=O)[C@H](CC)NC(=O)[C@H](C)N(C)C(=O)[C@H]2CCCN2C1=O", "logD": -2.86}
{"SMILES": "CCN1CC(=O)N[C@@H](CC(C)C)C(=O)N2CCC[C@@H]2C(=O)N(C)[C@@H](CC(C)C)C(=O)N[C@@H](C)C(=O)N(CC2CCOCC2)CC(=O)N[C@@H](C)C(=O)N2CCC[C@@H]2C(=O)N(C)[C@@H](CC(C)C)C(=O)N[C@@H](C)C1=O", "logD": -0.892}
{"SMILES": "CCCCCN1CC(=O)N[C@@H](Cc2ccccc2)C(=O)N2CCC[C@@H]2C(=O)N(C)[C@@H](CC(C)C)C(=O)N[C@@H](C)C(=O)N(CCCOC(C)C)CC(=O)N[C@@H](CC(C)C)C(=O)N2CCC[C@@H]2C(=O)N(C)[C@@H](CC(C)C)C(=O)N[C@@H](C)C1=O", "logD": 2.32}
{"SMILES": "CCC[C@@H]1NC(=O)CN(CCC)C(=O)[C@H](CC(C)C)NC(=O)Cn2cc(nn2)CN(C)C(=O)[C@H](CC(C)C)NC(=O)[C@H](C)N(C)C(=O)[C@H](CC(C)C)NC(=O)[C@H](C)N(C)C(=O)[C@H]2CCCN2C1=O", "logD": -0.951}
{"SMILES": "CC(C)C[C@@H]1NC(=O)[C@H](Cc2ccccc2)NC(=O)[C@H]2CCCN2C(=O)[C@H](CC(C)C)NC(=O)[C@H](C)NC(=O)[C@@H](C)NC1=O", "logD": -1.08}
{"SMILES": "CCCCCN1CC(=O)NC(CC(C)C)C(=O)N(C)C(C)C(=O)NC(Cc2ccccc2)C(=O)N2CCCC2C(=O)N(Cc2ccc3c(c2)OCO3)CC(=O)NC(CC(C)C)C(=O)N(C)C(C)C(=O)NC(CC(C)C)C(=O)N2CCCC2C1=O (stereo not drawn)", "logD": "≥ 3.4"}
{"SMILES": "CCN1CC(=O)N[C@@H](CC(C)C)C(=O)N2CCC[C@@H]2C(=O)N(C)[C@@H](C)C(=O)N[C@@H](CC(C)C)C(=O)N(C)[C@@H](C)C(=O)N[C@@H](CC(C)C)C(=O)N(C)Cc2cn(nn2)CC(=O)N[C@@H](CC(C)C)C1=O", "logD": -1.06}
{"SMILES": "CCN1CC(=O)NC(CC(C)C)C(=O)N(C)C(C)C(=O)NC(CC(C)C)C(=O)N2CCCC2C(=O)N(CC2CCCCC2)CC(=O)NC(CC(C)C)C(=O)N(C)C(C)C(=O)NC(C)C(=O)N2CCCC2C1=O (stereo not drawn)", "logD": 2.45}
{"SMILES": "CCCN1CC(=O)N[C@@H](C2CCCCC2)C(=O)N2CCC[C@@H]2C(=O)N(C)[C@@H](C)C(=O)N[C@@H](CC2CCCCC2)C(=O)N(C)[C@@H](C)C(=O)N[C@@H](CC(C)C)C(=O)N(C)Cc2cn(nn2)CC(=O)N[C@@H](CC(C)C)C1=O", "logD": 1.29}
{"SMILES": "CC(C)C[C@@H]1NC(=O)[C@H](Cc2ccccc2)NC(=O)[C@H]2CCCN2C(=O)[C@H](CC(C)C)NC(=O)[C@H](CC2CCCCC2)NC(=O)[C@@H](CC(C)C)NC1=O", "logD": 2.77}
{"SMILES": "CCC[C@H]1NC(=O)[C@H](CC(C)C)NC(=O)[C@H](Cc2ccccc2)NC(=O)[C@H]2CCCN2C(=O)[C@H](CC2CCCCC2)NC(=O)[C@H](CC2CCCCC2)NC1=O", "logD": 3}
{"data": "Set 4", "SMILES": "O=C1CCc2cc(Nc3cc(OC4CCOCC4)c([N+](=O)[O-])cc3Cl)ccc2N1", "technique": "competition with immobilised ligand", "tested at": "1 µM"}
{"target": "Tyrosine-protein kinase ABL1, non-phosphorylated (ABL1, Homo sapiens, UniProt P00519, F317I)", "test": "binding", "remaining binding": "100%"}
{"target": "NT-3 growth factor receptor (NTRK3, Homo sapiens, UniProt Q16288)", "test": "cell-free assay", "remaining binding": "100%"}
{"target": "Ribosomal protein S6 kinase alpha-6, N-terminal kinase domain (RPS6KA6, Homo sapiens, UniProt Q9UK32)", "test": "cell-free assay", "remaining binding": "77%"}
{"target": "Transient receptor potential cation channel subfamily M member 6 (TRPM6, Homo sapiens, UniProt Q9BX84)", "test": "cell-free assay", "remaining binding": "100%"}
{"target": "eIF-2-alpha kinase GCN2, C-terminal kinase domain (EIF2AK4, Homo sapiens, UniProt Q9P2K8, S808G)", "test": "cell-free assay", "remaining binding": "85%"}
{"target": "Serine/threonine-protein kinase tousled-like 2 (TLK2, Homo sapiens, UniProt Q86UE8)", "test": "cell-free assay", "remaining binding": "81%"}
{"target": "Cyclin-dependent kinase-like 3 (CDKL3, Homo sapiens, UniProt Q8IVW4)", "test": "cell-free assay", "remaining binding": "79%"}
{"target": "Serine/threonine-protein kinase BRSK2 (BRSK2, Homo sapiens, UniProt Q8IWQ3)", "test": "cell-free assay", "remaining binding": "100%"}
{"target": "Phosphatidylinositol 5-phosphate 4-kinase type-2 gamma (PIP4K2C, Homo sapiens, UniProt Q8TBX8)", "test": "cell-free assay", "remaining binding": "100%"}
{"target": "Calcium/calmodulin-dependent protein kinase type 1G (CAMK1G, Homo sapiens, UniProt Q96NX5)", "test": "cell-free assay", "remaining binding": "100%"}
{"target": "5'-AMP-activated protein kinase catalytic subunit alpha-1 (PRKAA1, Homo sapiens, UniProt Q13131)", "test": "cell-free assay", "remaining binding": "100%"}
{"target": "Platelet-derived growth factor receptor alpha (PDGFRA, Homo sapiens, UniProt P16234)", "test": "cell-free assay", "remaining binding": "97%"}
{"target": "Phosphatidylinositol 4,5-bisphosphate 3-kinase catalytic subunit alpha isoform (PIK3CA, Homo sapiens, UniProt P42336, I800L)", "test": "cell-free assay", "remaining binding": "63%"}
{"note": "A few entries again (set 1):"}
{"Structure (SMILES)": "CC(=O)c1ccc(N2CCOCC2)cc1O", "remaining activity": "98.6%"}
{"Structure (SMILES)": "Cc1cncc2cccc(S(=O)(=O)N3CCCN(C(=O)CN)C[C@@H]3C)c12", "remaining activity": "101%"}
{"Structure (SMILES)": "Nc1nc(Nc2ccc(S(N)(=O)=O)cc2)nn1C(=O)c1c(F)cccc1F", "remaining activity": "96.1%"}
{"Structure (SMILES)": "CC(C)(C)n1nc(Cc2cccc3ccccc23)c2c(N)ncnc21", "remaining activity": "96%"}
{"Structure (SMILES)": "N#CC(=C(N)Sc1ccc(N)cc1)c1ccccc1C(F)(F)F", "remaining activity": "100%"}
